{"data": "Experimental data pooled from the literature", "note": "Each numbered part is a random draw from the data of one study; scales do not carry over between parts. Substitutions count along the parent as printed."}
{"data": "Set 1", "target": "Ras GTPase-activating protein-binding protein 1, full length (G3BP1, Homo sapiens, UniProt Q13283)", "method": "RNA Bind-n-Seq", "form": "RNA", "medium": "in vitro", "concentration": "200 nM", "notes": "whole 134-nt RNA, ends assumed", "with": "150 mM LiCl", "reference": "input library", "reading": "higher = stronger binding", "all molecules": "7-deaza-guanosine replaces G", "sequence of UniProt Q13283 (whole entry, looked up)": "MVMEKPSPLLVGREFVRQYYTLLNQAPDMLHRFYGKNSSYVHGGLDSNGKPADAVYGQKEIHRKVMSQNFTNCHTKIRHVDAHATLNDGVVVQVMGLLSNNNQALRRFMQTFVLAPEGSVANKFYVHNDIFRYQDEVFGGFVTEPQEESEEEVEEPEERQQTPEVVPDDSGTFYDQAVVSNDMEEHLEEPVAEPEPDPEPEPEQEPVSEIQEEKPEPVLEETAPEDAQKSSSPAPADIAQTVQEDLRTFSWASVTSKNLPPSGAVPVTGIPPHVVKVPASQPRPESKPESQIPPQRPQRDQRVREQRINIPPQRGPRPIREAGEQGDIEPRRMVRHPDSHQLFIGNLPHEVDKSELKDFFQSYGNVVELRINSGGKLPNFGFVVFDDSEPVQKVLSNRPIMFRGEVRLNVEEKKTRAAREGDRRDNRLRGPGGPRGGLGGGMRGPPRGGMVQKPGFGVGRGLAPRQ"}
{"Sequence": "GGGAGUUCUACAGUCCGACGAUCAGUCCUGUGCUACACAUCGUAUGUACCGAAUCGGGUGGGUUUUUGGGAAAAAAAGGGAAAGUAUUAUGUUACGCCGUUCGGAUCUGCACUUGGAAUUCUCGGGUGUCAAGG", "log2 enrichment": -0.708}
{"Sequence": "GGGAGUUCUACAGUCCGACGAUCUGGGAGGUGGAUUUUGUUUAUUUUUUUAGCUCAUUUCCAGGGGUGGGAAUUUUUUUGUAAUAUGUGUCAUGAAUAAAGUUGUUUUUGAAAUGGAAUUCUCGGGUGUCAAGG", "log2 enrichment": -0.276}
{"Sequence": "GGGAGUUCUACAGUCCGACGAUCUGGCCCUGGUGGCAUGCGGGGAGGAAGAGGUGGCCUCAUGGAUCGUGGUGGUCCCGGUGGAAGGUUCAGAGGUGGCCGUGGUGGAGACAGUGGAAUUCUCGGGUGUCAAGG", "log2 enrichment": 0.377}
{"Sequence": "GGGAGUUCUACAGUCCGACGAUCAAUUCUCAUUUCUCGACAUAAAGCCUUGUCUAAAGUGAGAUGUUUUCCAGGUCAUACAUAGGUUUCUCCCUGGGGUAAUUGGAAGUUCUUUGGAAUUCUCGGGUGUCAAGG", "log2 enrichment": -1.89}
{"data": "Set 2", "target": "Sal-like protein 4, full length isoform B (SALL4, Homo sapiens, UniProt Q9UJQ4-2, residues 1-616)", "method": "universal PBM", "form": "double-stranded DNA, one strand shown", "medium": "in vitro", "concentration": "not given", "notes": "8-mer, flanks averaged, mean of replicates", "reading": "higher = stronger binding", "Construct (chain)": "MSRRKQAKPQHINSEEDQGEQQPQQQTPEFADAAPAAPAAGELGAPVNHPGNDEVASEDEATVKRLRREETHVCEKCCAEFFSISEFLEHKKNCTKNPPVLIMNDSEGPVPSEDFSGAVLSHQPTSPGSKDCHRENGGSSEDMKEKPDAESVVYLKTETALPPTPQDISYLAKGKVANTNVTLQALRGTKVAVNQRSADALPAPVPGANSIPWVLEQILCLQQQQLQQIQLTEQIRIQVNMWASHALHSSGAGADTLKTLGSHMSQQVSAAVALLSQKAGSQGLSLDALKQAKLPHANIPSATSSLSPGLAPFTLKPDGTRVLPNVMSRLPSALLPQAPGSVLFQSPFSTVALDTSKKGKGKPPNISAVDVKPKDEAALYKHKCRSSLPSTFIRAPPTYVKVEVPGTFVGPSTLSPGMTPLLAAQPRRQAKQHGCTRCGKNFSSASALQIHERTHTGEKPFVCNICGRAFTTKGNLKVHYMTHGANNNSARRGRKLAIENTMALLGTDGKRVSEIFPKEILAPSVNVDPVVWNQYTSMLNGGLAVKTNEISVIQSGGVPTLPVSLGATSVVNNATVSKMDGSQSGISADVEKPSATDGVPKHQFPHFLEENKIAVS"}
{"Sequence": "AGACCTAC", "E-score": -0.0108}
{"Sequence": "AGACACTA", "E-score": 0.128}
{"Sequence": "AGTTGAAC", "E-score": 0.00403}
{"Sequence": "GTTGAAAC", "E-score": 0.0825}
{"data": "Set 3", "target": "CCNB1, cyclin fold, Cln2 fusion (human)", "method": "yeast growth competition, sequencing", "medium": "yeast", "notes": "strong parent motif", "reference": "not given", "reading": "higher = stronger binding", "starting sequence": "MASTL docking peptide (human); PMIAKNLMCELDE"}
{"Variant": "M8R", "normalised enrichment score": 0.106}
{"Variant": "D12S", "normalised enrichment score": 1.36}
{"Variant": "C9P", "normalised enrichment score": 3.04}
{"Variant": "I3P", "normalised enrichment score": 0.369}
{"Variant": "L7G", "normalised enrichment score": -0.374}
{"data": "Other studies, line by line"}
{"Molecule": "PhoQ, residues 284 288 289 292 302 303 SVHLDV", "target": "PhoP, residues 12 14 15 18 19 NNFVT (Escherichia coli, UniProt P23836)", "assay": "Sort-seq, item: YFP reporter", "test system": "E. coli", "setting": "PhoQ-PhoP variant library, with: 10 µM Mg2+", "scale": "reference: high Mg2+ state, higher = stronger signaling", "endpoint": "fold induction", "value": 5.53}
{"note": "A few entries again (set 1):"}
{"Sequence": "GGGAGUUCUACAGUCCGACGAUCAAUUCUCAUUUCUCGACAUAAAGCCUUGUCUAAAGUGAGAUGUUUUCCAGGUCAUACAUAGGUUUCUCCCUGGGGUAAUUGGAAGUUCUUUGGAAUUCUCGGGUGUCAAGG", "log2 enrichment": -1.89}
